Experimental data from different studies.
Compare with care: the assays were run in different laboratories. Values joined by “and” are separate records of one study, mostly repeats; a detail may differ. ± gives the spread as reported.
Sequence of UniProt P51575 (whole entry, unmodified, looked up): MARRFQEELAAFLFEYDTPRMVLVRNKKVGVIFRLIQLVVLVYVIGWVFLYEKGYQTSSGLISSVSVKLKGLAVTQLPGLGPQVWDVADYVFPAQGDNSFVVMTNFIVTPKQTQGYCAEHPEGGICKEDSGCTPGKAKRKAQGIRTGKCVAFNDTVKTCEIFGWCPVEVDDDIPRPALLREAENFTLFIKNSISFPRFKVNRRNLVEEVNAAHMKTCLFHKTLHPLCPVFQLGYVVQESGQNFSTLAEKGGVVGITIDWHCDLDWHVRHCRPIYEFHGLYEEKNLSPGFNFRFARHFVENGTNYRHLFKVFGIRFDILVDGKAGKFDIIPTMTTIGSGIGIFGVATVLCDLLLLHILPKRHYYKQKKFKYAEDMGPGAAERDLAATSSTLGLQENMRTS

Under “patients with cardiac adverse events”, Cc1cc(Nc2ccc(S(F)(F)(F)(F)F)cc2)n2nc(C(C)(F)F)nc2n1 is recorded as 0% (Plasmodium vivax; human Plasmodium vivax malaria patients; oral, 800 mg).
For N=C(N)c1ccc(OCc2ccc(-c3ccccc3)cc2COc2ccc(C(=N)N)cc2)cc1, the MIC was 200 µg/mL (Escherichia coli; BW25113; compound alone, with: erythromycin checkerboard).
For CC(C)[C@H](NC(=O)[C@H](Cc1ccc(O)cc1)NC(=O)[C@H](Cc1ccc(O)cc1)NC(=O)[C@@H]1CCCN1C(=O)[C@H](CCC(=O)O)NC(=O)[C@H](CCC(=O)O)NC(=O)[C@H](Cc1c[nH]c2ccccc12)NC(=O)[C@@H]1CCCN1C(=O)[C@@H](NC(=O)[C@H](CCC(N)=O)NC(=O)c1ccc2c(c1)C(=O)OC21c2ccc(O)cc2Oc2cc(O)ccc21)C(C)C)C(=O)N[C@H](C(=O)N[C@@H](CCCCN)C(=O)N[C@@H](CCCCN)C(=O)N[C@@H](CO)C(=O)N[C@@H](CO)C(=O)NCC(=O)NCC(N)=O)C(C)C, the plasma concentration was 4450 ng/mL (item: total compound; human, plasma; intravenous infusion, 100 mg, 15 min).
O=C(O)c1cn(C2CC2)c2cc(N3CCNCC3)c(F)cc2c1=O gave an MIC of 0.5 µM (Providencia alcalifaciens; ATCC 9886).
The MIC of CNC(C)C1CCC(N)C(OC2C(N)CC(N)C(OC3OCC(C)(O)C(NC)C3O)C2O)O1 (stereo not drawn) is reported as 8 µg/mL (Pseudomonas aeruginosa; broth microdilution; clinical isolate RKI-No 483/15-1).
For CCn1c(=O)c(-c2cc[nH]n2)cc2c(C)nc(N)nc21, “necrotic/apoptotic bodies score” read 0 (enterovirus A71; suckling mouse, EV71-infected, spleen; 0.25 mg/kg; direction not given).
Nc1ncnc2c1ncn2[C@@H]1O[C@H](COP(=O)(O)CP(=O)(O)OP(=O)(O)O)[C@@H](O)[C@H]1O has a specific binding of 354 CCPM and 536 CCPM (P2X purinoceptor 1 (P2RX1, Homo sapiens, UniProt P51575, R292A); saturation binding; HEK293; 130 nM).
With O=c1c(O)c(-c2ccc(O)cc2)oc2cc(O[C@@H]3O[C@H](CO)[C@@H](O)[C@H](O)[C@H]3O)cc(O)c12 the MIC was 100 µg/mL (Streptococcus sobrinus; ATCC 33478).
C=CC(=O)ON=C1C=CC(=C(C#N)c2ccccc2)C=C1 has an MIC of 32 µg/mL (Pichia norvegensis; broth dilution; ATCC 96139; 48 h, 37 °C).
CCn1cc(-c2cc(Cn3ccnc3)cc3c2CCN([C@H](c2cc(OC)ccn2)C2CC2)C3=O)c(C(F)(F)F)n1 gave an EC50 of 34.9 nM (Granta-519; cell growth, inhibitor; 120 h).
The MIC of CC1(C)S[C@@H]2[C@H](NC(=O)[C@H](N)c3ccccc3)C(=O)N2[C@H]1C(=O)O is reported as 3.12 µg/mL (Escherichia coli; broth microdilution; BW25113 wild type; 18 h).
C[C@@H](O)[C@H]1C(=O)N2C(C(=O)O)=C(S[C@@H]3CN[C@H](C(=O)N(C)C)C3)[C@H](C)[C@H]12 has an MIC of > 64 µg/mL (Stenotrophomonas maltophilia; broth microdilution; clinical isolate RKI-No 136/09).
C[C@@H](O)[C@H]1C(=O)N2C(C(=O)O)=C(S[C@@H]3CN[C@H](C(=O)N(C)C)C3)[C@H](C)[C@H]12 gave an MIC of 2 µg/mL (Helicobacter pylori; broth microdilution; SS1; 48 h, microaerobic).
CCON=C1C=CC(=C(C#N)c2ccccc2)C=C1 has an MIC of 256 µg/mL (Pichia norvegensis; broth dilution; ATCC 96139; 48 h, 37 °C).
The MIC of C/C(=N\C(=S)/N=C(\C)c1c(O)c2ccccc2oc1=O)c1c(O)c2ccccc2oc1=O is reported as 1.95 ± 0.07 µg/mL (Penicillium verrucosum; broth microdilution; 48 h, 35 °C).
With CC(C)C[C@H](NC(=O)C[C@H](O)[C@H](CC(C)C)NC(=O)[C@H](Cc1c[nH]cn1)NC(=O)CNC(=O)[C@@H](NC(=O)[C@H](C)NC(=O)[C@H](Cc1c[nH]c2ccccc12)NC(=O)[C@H](CCC(N)=O)NC(=O)[C@@H](Cc1ccccc1)NC(=O)COCCOCCNC(=O)CCC(C(=O)O)N1CCN(CC(=O)O)CCN(CC(=O)O)CCN(CC(=O)O)CC1)C(C)C)C(N)=O (stereo partly drawn) [lutetium-177 labelled] the tissue uptake was 1.9 ± 0.7 %ID/g (BALB/c nu/nu mice, female, blood; intravenous, 100 pmol, 30 min, time course 0.5 h, with: PA 300 µg).
With N=C(N)c1ccc(OCCC(CCOc2ccc(C(=N)N)cc2)c2ccccc2)cc1 (stereo not drawn) the MIC was > 200 µg/mL (Escherichia coli; BW25113; compound alone, vancomycin checkerboard).
CC(C)n1ncc2c(C(=O)NCC3(C)CNC3)cc(C3CC3)nc21 gave a plaque area of 0% (enterovirus A71; Tainan/4643/1998; 1 µM).
CC1(C)S[C@@H]2[C@H](NC(=O)[C@H](N)c3ccccc3)C(=O)N2[C@H]1C(=O)O has an MIC of > 16 µg/mL (Pseudomonas aeruginosa; clinical isolate RKI-No_254/15).
With CC(=O)NC[C@H]1CN(c2ccc(N3CCOCC3)c(F)c2)C(=O)O1 the MIC was < 2.96 µM (Phocaeicola dorei; HM-717).
C#CCOC(=O)ON=C1C=CC(=C(C#N)c2ccccc2)C=C1 has an MIC of 16 µg/mL (Pichia norvegensis; broth dilution; ATCC 96139; 48 h, 37 °C).
CCCCCCCCCC(=O)N[C@@H](Cc1c[nH]c2ccccc12)C(=O)N[C@H](CC(N)=O)C(=O)N[C@@H](CC(=O)O)C(=O)N[C@@H]1C(=O)NCC(=O)N[C@@H](CCCN)C(=O)N[C@@H](CC(=O)O)C(=O)N[C@H](C)C(=O)N[C@@H](CC(=O)O)C(=O)NCC(=O)N[C@H](CO)C(=O)N[C@@H]([C@H](C)CC(=O)O)C(=O)N[C@@H](CC(=O)c2ccccc2N)C(=O)O[C@@H]1C gave an MIC of 1 µg/mL (Staphylococcus aureus; SH1000; with: lysophosphatidylethanolamine, molar ratio 1).
Under “log2 fold change”, Cn1cc(-c2ccc(-c3cncc(Cl)c3N3CCC4(CCNC4=O)CC3)cc2)cn1 is recorded as 3.11 (COLO 205; gene expression, microarray, item: HSPA5 (GRP78) mRNA; concentration not given, 6 h; reference: untreated cells).
The MIC of Cc1ccc(CCC(=O)Nc2nnc(S(N)(=O)=O)s2)cc1 is reported as > 784 µM (Phocaeicola dorei; HM-719).

Some of these lines once more:
For CC(C)[C@H](NC(=O)[C@H](Cc1ccc(O)cc1)NC(=O)[C@H](Cc1ccc(O)cc1)NC(=O)[C@@H]1CCCN1C(=O)[C@H](CCC(=O)O)NC(=O)[C@H](CCC(=O)O)NC(=O)[C@H](Cc1c[nH]c2ccccc12)NC(=O)[C@@H]1CCCN1C(=O)[C@@H](NC(=O)[C@H](CCC(N)=O)NC(=O)c1ccc2c(c1)C(=O)OC21c2ccc(O)cc2Oc2cc(O)ccc21)C(C)C)C(=O)N[C@H](C(=O)N[C@@H](CCCCN)C(=O)N[C@@H](CCCCN)C(=O)N[C@@H](CO)C(=O)N[C@@H](CO)C(=O)NCC(=O)NCC(N)=O)C(C)C, the plasma concentration was 4450 ng/mL (item: total compound; human, plasma; intravenous infusion, 100 mg, 15 min).
O=C(O)c1cn(C2CC2)c2cc(N3CCNCC3)c(F)cc2c1=O gave an MIC of 0.5 µM (Providencia alcalifaciens; ATCC 9886).
The MIC of CNC(C)C1CCC(N)C(OC2C(N)CC(N)C(OC3OCC(C)(O)C(NC)C3O)C2O)O1 (stereo not drawn) is reported as 8 µg/mL (Pseudomonas aeruginosa; broth microdilution; clinical isolate RKI-No 483/15-1).
For CCn1c(=O)c(-c2cc[nH]n2)cc2c(C)nc(N)nc21, “necrotic/apoptotic bodies score” read 0 (enterovirus A71; suckling mouse, EV71-infected, spleen; 0.25 mg/kg; direction not given).
